Experimental data gathered from unrelated publications.
Parts stem from different laboratories: compare values within a part only. Values joined by “and” are separate records of one study, mostly repeats; a detail may differ.
Chain of UniProt P51812 (whole entry, looked up): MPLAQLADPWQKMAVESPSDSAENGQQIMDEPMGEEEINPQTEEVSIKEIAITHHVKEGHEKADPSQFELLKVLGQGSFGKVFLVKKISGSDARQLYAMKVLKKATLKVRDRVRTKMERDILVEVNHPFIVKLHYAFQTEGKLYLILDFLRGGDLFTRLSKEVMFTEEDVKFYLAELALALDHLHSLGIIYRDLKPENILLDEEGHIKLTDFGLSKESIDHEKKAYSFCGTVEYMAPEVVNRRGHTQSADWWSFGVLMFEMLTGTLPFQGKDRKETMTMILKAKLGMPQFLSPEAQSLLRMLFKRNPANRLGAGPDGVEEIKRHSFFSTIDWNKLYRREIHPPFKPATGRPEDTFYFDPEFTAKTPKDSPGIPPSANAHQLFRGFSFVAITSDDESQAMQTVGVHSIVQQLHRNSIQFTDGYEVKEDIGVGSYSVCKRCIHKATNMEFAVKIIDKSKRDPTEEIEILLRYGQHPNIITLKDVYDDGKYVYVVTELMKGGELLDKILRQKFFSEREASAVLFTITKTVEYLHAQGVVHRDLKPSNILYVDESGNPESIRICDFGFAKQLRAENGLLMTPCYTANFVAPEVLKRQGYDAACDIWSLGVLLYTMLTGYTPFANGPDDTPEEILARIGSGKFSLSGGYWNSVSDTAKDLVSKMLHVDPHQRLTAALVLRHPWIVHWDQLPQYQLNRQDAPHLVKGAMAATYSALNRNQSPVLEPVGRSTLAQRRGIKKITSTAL
Chain of UniProt Q16566 (whole entry, looked up): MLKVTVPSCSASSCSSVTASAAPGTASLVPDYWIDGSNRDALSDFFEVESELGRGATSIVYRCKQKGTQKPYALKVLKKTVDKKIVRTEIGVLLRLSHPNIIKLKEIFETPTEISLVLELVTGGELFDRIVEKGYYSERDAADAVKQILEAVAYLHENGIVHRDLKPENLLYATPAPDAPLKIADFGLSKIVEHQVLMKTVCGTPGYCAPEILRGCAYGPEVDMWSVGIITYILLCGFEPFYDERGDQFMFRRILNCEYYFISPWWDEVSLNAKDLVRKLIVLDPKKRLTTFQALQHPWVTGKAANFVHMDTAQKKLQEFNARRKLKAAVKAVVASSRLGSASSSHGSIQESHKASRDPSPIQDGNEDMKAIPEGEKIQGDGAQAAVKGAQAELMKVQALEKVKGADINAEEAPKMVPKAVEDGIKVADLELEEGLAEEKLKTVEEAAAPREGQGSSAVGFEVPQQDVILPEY
Chain of UniProt Q13554 (whole entry, looked up): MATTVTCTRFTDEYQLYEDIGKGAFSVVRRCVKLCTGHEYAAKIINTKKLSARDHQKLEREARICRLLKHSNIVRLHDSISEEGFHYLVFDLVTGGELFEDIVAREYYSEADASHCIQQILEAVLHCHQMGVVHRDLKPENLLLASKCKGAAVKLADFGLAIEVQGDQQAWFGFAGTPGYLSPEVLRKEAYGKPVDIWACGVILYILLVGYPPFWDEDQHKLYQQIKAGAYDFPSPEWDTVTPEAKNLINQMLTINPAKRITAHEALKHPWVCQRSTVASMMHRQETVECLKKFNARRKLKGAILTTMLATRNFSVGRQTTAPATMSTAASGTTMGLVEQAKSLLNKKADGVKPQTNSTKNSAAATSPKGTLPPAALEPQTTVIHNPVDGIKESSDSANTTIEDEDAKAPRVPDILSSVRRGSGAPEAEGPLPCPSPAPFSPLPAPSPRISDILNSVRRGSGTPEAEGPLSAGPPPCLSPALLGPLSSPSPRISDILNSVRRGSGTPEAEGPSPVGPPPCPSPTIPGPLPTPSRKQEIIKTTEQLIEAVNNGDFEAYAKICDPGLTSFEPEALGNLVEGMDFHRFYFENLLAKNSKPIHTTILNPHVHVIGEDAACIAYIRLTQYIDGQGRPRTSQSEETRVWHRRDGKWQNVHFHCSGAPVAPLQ
Chain of UniProt Q15303 (whole entry, looked up): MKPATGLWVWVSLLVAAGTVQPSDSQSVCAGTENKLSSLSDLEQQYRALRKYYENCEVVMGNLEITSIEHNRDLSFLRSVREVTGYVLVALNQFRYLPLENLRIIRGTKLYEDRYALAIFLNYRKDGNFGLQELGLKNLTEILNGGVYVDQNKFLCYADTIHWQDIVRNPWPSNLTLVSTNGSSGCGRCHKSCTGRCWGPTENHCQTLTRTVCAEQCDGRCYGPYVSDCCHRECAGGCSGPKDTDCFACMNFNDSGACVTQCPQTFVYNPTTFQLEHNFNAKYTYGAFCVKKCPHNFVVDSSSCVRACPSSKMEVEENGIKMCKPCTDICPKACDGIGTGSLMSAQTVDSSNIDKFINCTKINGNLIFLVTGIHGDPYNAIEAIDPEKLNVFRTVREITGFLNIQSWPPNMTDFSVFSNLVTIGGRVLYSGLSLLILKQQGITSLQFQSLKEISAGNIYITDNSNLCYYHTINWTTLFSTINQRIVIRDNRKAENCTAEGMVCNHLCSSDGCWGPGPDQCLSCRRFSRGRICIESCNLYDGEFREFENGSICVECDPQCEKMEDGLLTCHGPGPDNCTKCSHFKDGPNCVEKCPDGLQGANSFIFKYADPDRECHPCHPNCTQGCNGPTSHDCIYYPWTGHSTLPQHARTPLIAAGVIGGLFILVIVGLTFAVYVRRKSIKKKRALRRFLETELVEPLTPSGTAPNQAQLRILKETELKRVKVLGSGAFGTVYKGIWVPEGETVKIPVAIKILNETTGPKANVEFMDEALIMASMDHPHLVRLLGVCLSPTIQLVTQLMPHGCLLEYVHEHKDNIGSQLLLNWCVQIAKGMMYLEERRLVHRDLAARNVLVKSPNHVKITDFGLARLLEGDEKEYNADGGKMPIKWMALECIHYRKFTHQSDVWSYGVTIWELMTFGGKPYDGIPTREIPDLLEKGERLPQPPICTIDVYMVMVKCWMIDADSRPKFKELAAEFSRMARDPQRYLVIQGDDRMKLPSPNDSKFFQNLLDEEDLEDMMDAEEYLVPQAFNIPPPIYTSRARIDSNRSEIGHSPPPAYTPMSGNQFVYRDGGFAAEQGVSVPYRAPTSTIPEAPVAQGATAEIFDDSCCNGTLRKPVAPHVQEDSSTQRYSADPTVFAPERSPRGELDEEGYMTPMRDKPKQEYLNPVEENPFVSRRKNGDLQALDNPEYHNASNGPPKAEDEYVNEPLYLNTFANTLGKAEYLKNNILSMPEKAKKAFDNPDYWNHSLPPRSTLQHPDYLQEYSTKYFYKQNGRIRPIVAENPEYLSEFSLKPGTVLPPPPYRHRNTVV

Study 1 — organism: Sarcocystis neurona; read-out: parasite growth; concentration: 10 µM; time: 96 h; setting: first screen; reference: untreated
Under “log2 fold change”, `C=CC1=C(C(=O)O)N2C(=O)[C@@H](NC(=O)/C(=N\OCC(=O)O)c3csc(N)n3)[C@H]2SC1` is recorded as 0.2.
`CCCCc1oc2ccccc2c1C(=O)c1cc(I)c(OCCN(CC)CC)c(I)c1` — result for “log2 fold change”: -0.34.
For `CC(C)(C)NC(=O)[C@@H]1C[C@@H]2CCCC[C@@H]2CN1C[C@@H](O)[C@H](Cc1ccccc1)NC(=O)[C@H](CC(N)=O)NC(=O)c1ccc2ccccc2n1`, “log2 fold change” read -0.48.
`CN(C)[C@@H]1C(O)=C(C(N)=O)C(=O)[C@@]2(O)C(O)=C3C(=O)c4c(O)ccc(Cl)c4[C@@H](O)[C@H]3C[C@@H]12`: “log2 fold change” -0.6.
Under “log2 fold change”, `COc1cc(-c2ccc(=O)[nH]n2)ccc1OC(F)F` is recorded as 0.56.
For `CC(=O)N1CCN(c2ccc(OCC3COC(Cn4ccnc4)(c4ccc(Cl)cc4Cl)O3)cc2)CC1` (stereo not drawn), “log2 fold change” read -0.33.
`Cc1cc(NS(=O)(=O)c2ccc(N)cc2)no1` — result for “log2 fold change”: 0.17.

Study 2 — read-out: cell-free assay; technique: competition with immobilised ligand; concentration: 1 µM
Structure (SMILES): CN(C)CC#Cc1ccc(OCCCc2sc(N3CCc4cccc(C(=O)Nc5nc6ccccc6s5)c4C3)nc2C(=O)O)c(F)c1
The remaining binding was 71% (Mast/stem cell growth factor receptor Kit (KIT, Homo sapiens, UniProt P10721, D816H)).
The remaining binding was 98% (Calcium/calmodulin-dependent protein kinase type IV (CAMK4, Homo sapiens, UniProt Q16566)).
It gave 99% for remaining binding (Receptor tyrosine-protein kinase erbB-4 (ERBB4, Homo sapiens, UniProt Q15303)).
The remaining binding was 100% (Ribosomal protein S6 kinase alpha-3, C-terminal kinase domain (RPS6KA3, Homo sapiens, UniProt P51812)).
Calcium/calmodulin-dependent protein kinase type II subunit beta (CAMK2B, Homo sapiens, UniProt Q13554) — remaining binding: 79%.

Study 3 — cell line: mouse MPNST tumor cells; technique: high-content nuclear imaging; refers to: cell number; concentration: 10 µM; time: 12 h; setting: mean of 2 replicates; reference: plate mean; reading: higher = more cells
The nuclei count of `C[C@H](CCC(=O)O)[C@H]1CC[C@H]2[C@@H]3[C@H](O)C[C@@H]4C[C@H](O)CC[C@]4(C)[C@H]3CC[C@]12C` is reported as 0.668 z-score.
For `CCOC(=O)C1=C[C@]2(CC)CCCN3CCc4c(n1c1ccccc41)[C@@H]32`, the nuclei count was 3.9 z-score.
`COc1cccc2c1C(=O)c1c(O)c3c(c(O)c1C2=O)C[C@@](O)(C(=O)CO)C[C@@H]3O[C@H]1C[C@H](N)[C@H](O)[C@H](C)O1` has a nuclei count of -5.68 z-score and -6.04 z-score.
With `N=C1NC(=O)/C(=C/c2ccc(O)cc2)S1` the nuclei count was 2.35 z-score.
For `CN1CCN(c2ncc(-c3cc(Cl)cc(Cl)c3Cl)c(N)n2)CC1`, the nuclei count was 0.788 z-score.
The nuclei count of `C/C(=C\C(=O)Nc1ccccc1C(=O)O)c1ccc2ccccc2c1` is reported as 0.275 z-score.

Study 4 — read-out: enzyme activity; action: inhibitor; concentration: 0.5 µM; reference: control
Target: Vascular endothelial growth factor receptor 1 (FLT1, Homo sapiens, UniProt P17948)
Chain of UniProt P17948 (whole entry, looked up): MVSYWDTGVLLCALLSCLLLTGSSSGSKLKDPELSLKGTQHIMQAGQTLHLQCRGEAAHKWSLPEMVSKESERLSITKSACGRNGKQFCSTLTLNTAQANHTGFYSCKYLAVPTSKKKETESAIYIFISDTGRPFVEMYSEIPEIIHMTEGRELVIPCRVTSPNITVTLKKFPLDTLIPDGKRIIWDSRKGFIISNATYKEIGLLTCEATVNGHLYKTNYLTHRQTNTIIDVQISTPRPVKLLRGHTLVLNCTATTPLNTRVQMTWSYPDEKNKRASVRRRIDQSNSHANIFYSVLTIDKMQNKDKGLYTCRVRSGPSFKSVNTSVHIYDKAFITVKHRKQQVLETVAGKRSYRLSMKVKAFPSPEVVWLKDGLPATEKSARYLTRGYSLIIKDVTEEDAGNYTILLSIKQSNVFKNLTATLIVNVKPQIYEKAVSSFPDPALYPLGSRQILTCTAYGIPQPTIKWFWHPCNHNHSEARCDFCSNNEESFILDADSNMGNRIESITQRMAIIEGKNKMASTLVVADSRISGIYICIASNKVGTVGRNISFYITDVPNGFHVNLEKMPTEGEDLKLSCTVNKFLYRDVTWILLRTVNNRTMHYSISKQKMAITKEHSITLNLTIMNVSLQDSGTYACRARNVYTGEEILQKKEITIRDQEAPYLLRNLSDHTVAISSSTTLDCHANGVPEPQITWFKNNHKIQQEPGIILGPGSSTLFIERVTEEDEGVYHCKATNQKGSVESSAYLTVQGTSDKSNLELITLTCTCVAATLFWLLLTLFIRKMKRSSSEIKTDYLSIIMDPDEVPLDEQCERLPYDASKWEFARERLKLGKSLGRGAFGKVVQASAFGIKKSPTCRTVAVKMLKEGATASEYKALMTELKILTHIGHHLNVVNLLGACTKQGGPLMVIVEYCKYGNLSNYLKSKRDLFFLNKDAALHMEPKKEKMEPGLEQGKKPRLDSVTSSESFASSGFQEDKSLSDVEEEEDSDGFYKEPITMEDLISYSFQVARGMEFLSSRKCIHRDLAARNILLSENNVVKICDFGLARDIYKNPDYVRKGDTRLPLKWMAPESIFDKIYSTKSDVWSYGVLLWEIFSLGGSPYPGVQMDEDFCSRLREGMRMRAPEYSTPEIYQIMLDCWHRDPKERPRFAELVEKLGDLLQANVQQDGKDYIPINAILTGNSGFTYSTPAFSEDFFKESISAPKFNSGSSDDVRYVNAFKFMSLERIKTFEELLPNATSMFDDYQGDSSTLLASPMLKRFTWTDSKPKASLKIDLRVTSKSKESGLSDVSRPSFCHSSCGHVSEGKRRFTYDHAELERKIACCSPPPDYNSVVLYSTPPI
`O=C(O)c1ccc2c3c1cccc3c(=O)n1c3ccccc3nc21` gave a remaining activity of 86.5%.
The remaining activity of `O=S(=O)(c1cccc2cnccc12)N1CCCNCC1` is reported as 90%.
With `Cc1ccc(Nc2nccc(N(C)c3ccc4c(C)n(C)nc4c3)n2)cc1S(N)(=O)=O` the remaining activity was 27.2%.
`Cc1cccc(-c2[nH]c(C(C)(C)C)nc2-c2ccc3c(c2)OCO3)n1` has a remaining activity of 84.3%.
`Cn1c2ccccc2c2c3c(c4c5ccccc5n(CCC#N)c4c21)CNC3=O` gave a remaining activity of 63.6%.
With `Nc1ncnc2n[nH]c(Nc3ccc(F)cc3)c12` the remaining activity was 87.3%.
`Cc1nc(-c2ccccc2)c(-c2ccncc2)o1` gave a remaining activity of 79.4%.
`COc1ccc(C(=O)Nc2sc3c(c2C(N)=O)CCCC3)cc1OC` has a remaining activity of 99.1%.
`CN(C)c1ccc(C=C2C(=O)Nc3ccccc32)cc1` has a remaining activity of 92%.
For `O=C(CCCc1ccc(-c2ccccc2F)cc1)Nc1ccc(O)cc1`, the remaining activity was 93.1%.
`Nc1[nH]nc2nc3ccccc3nc12` gave a remaining activity of 92.1%.
`Nc1ccc2ncnc(NCCc3ccc(Oc4ccccc4)cc3)c2c1` has a remaining activity of 96%.
With `C#Cc1cccc(Nc2ncnc3cc(OCCOC)c(OCCOC)cc23)c1` the remaining activity was 87.5%.
`OCC(O)CCON=C1C(c2c(O)[nH]c3ccccc23)=Nc2ccccc21` (stereo not drawn) has a remaining activity of 51%.
With `CCOC(=O)c1c(C)[nH]c(/C=C2\C(=O)Nc3ccccc32)c1C` the remaining activity was 79%.
